Assay results from different studies.
A part holds a random share of what one study measured. Substitutions count along the parent as printed.

Study 1
Target: Centromere-binding protein 1, full length, N-terminal tag (CBF1, Saccharomyces cerevisiae, UniProt P17106, residues 1-351)
Chain of UniProt P17106 (whole entry, looked up): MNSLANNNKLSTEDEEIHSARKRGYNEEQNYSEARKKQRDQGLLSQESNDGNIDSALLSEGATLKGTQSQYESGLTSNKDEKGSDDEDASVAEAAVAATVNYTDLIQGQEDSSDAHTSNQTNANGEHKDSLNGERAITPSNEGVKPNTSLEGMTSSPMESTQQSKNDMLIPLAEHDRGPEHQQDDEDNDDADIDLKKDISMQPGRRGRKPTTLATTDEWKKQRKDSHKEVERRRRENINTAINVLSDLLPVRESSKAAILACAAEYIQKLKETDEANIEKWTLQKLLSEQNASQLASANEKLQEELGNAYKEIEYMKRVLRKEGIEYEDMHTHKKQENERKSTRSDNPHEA
Technique: protein-binding microarray
Molecule type: double-stranded DNA, one strand shown
Matrix: in vitro
Tested at: 0.8 µM
Notes: whole 60-bp probe, no competitor
Direction: higher = stronger binding
Sequence	fluorescence intensity [a.u.]
CTAGGAGGTTCTGAACGCATGACATGCTCCTCTTTCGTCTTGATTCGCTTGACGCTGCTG	689
CTACTGGAGGTTAATCACCTGTTGTCTTACTATTTCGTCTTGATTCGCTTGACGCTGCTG	768
CTATCAGATTCTGGTCATGCTTGTTCAATATACTTCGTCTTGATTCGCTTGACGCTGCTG	741
CTATCGTGGTCCTCTCATGTCACGTCAAAATTTTTCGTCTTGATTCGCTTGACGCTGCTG	702
GAAGGTTTTAAAAGTCACGTGCTTAAGTCCATTTAGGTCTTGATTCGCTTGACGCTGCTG	23200
GAAATCTTACTGTACCCCGTGGAGAATTAACTGTAGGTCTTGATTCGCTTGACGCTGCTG	656
GAAAGATTTTTTCATCTGATGATGTATGGAAAATAGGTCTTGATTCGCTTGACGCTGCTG	563
CTAAGAACCTAGAGTCACGATTGAAATATTTAATTCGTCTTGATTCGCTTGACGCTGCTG	593

Study 2
Target: Krueppel-like factor 3, full length (KLF3, Homo sapiens, UniProt P57682, residues 1-345)
Chain of UniProt P57682 (whole entry, looked up): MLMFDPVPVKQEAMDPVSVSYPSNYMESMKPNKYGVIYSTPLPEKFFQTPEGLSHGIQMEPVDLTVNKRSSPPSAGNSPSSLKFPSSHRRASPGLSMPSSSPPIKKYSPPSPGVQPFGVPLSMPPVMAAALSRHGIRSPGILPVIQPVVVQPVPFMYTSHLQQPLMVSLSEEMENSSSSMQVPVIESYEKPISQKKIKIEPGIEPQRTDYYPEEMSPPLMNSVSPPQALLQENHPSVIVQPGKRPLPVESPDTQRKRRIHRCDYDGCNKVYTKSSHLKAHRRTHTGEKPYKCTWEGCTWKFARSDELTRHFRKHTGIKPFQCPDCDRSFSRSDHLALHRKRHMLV
Technique: protein-binding microarray
Molecule type: hairpin DNA
Matrix: in vitro
Tested at: not given
Notes: whole hairpin DNA, median over replicate spots
Baseline: not given
Direction: higher = stronger binding
Sequence	median fluorescence [a.u.]
GAGGCCGATCACGCCCAGCCTCCTGGCTGGGCGTGATCGGCCTCACACTC	15000
GAGGCCGACCGCGCCGAGCCTCCTGGCTCGGCGCGGTCGGCCTCACACTC (5mC at 15)	8700
GAGGCCGACCACGCGCAGCCTCCTGGCTGCGCGTGGTCGGCCTCACACTC	22500
GAGGCCGACCACGCGCAGCCTCCTGGCTGCGCGTGGTCGGCCTCACACTC (5mC at 30)	15600
GAGGCCCGCCACGCCCAGCCTCCTGGCTGGGCGTGGCGGGCCTCACACTC	9190
GAGGCCGACCCGGCCCAGCCTCCTGGCTGGGCCGGGTCGGCCTCACACTC (5mC at 33)	8120
GAGGCCGACCGCGCGCAGCCTCCTGGCTGCGCGCGGTCGGCCTCACACTC (5mC at 14)	12300
GAGGCCGACCCGGCCCAGCCTCCTGGCTGGGCCGGGTCGGCCTCACACTC	8300

Study 3
Target: RNA binding protein fox-1 homolog 2, RRM domain, GST-SBP tag (RBFOX2, Homo sapiens, UniProt O43251-10, residues 100-194)
Technique: RNA Bind-n-Seq
Molecule type: RNA
Matrix: in vitro
Tested at: 365 nM
Notes: natural RNA segment, single round, ends assumed
Baseline: no-protein control
Direction: higher = stronger binding
Construct (chain): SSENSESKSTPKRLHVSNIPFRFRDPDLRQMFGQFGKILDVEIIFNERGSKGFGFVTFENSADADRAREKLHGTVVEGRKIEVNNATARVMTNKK
Sequence	RBNS enrichment (R)
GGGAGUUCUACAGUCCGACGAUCCUGCUCAGAAAAGCGCUGCUCUUGUAUGUCUCAUUGGUAUUGGAAAAAUAAACCUGUACAACCUGCACUUGUCUCCUUGUCAUCUGUGGCUGCCUGUGGGUGUGGGGAGGUGGAAUUCUCGGGUGCCAA	0.787
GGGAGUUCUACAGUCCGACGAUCUGGGGUGACAUAAACUAGAUAAAGGGCCUUUCUUGGAGAACUAGGCUUAAGGAAUAUCCCUGUCUUCUGUCUUUUGGUUUUCGUUUGUUCGUCUUUUAUUUUCUUGUGGCUGGAAUUCUCGGGUGCCAA	0.772
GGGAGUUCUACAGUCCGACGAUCAUAGAGGCUGGGCAUCACAUCAAAUGGGACUGUGGUGUUUGGUGAAAACCUUCCUGAGGAUCUGGAUUCAGGACCCUCCAUGACUGGCCUAUUUACUGUUUACAGCUGGCUGGAAUUCUCGGGUGCCAA	0.397
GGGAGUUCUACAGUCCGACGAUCUUUCCUAAAAGCAUCCUUCAUCUGCAUUCCAUCCUGGGUCAGCAUCAACCACAACAUAGCAGGCAUUCCCUUGCAGCUGCAGUACAGUAGCAGUGUCCUUUUCUGAGGAAUGGAAUUCUCGGGUGCCAA	1.89
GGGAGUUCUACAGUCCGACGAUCCUUCCUUGGUCUACAUAAAGAAGACAUGGGUCUGUCAUAGAAUGGGGACAUUAGACUGAAAACUGGGACAACCCCCUUCCUUAUUUUAUAGAGACUAGGAGUUAAGGGGCUGGAAUUCUCGGGUGCCAA	0.604
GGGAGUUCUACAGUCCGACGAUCCUUUUUUGAGAGCACCCAGGUGACUUCUGACUUUUUCUGGCAAAAAUGUUGACUCUCCAUCCAUAGUGUUAGGGGCAGCCGUGGAAGCAGCAGCAGCCAGGGAUGUCUCUUGGAAUUCUCGGGUGCCAA	0.676
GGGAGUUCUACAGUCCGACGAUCCCUGUGUAACUCUGCUCUGAGGAACAGGUGUUUCCCAACUGGAUUCGCCUUUUCUAGUCCAGUAGAGUUGGCACCAAUCCAGCCUUAAAUGGUCCUGGGGAUGCCACCUGUGGAAUUCUCGGGUGCCAA	0.18
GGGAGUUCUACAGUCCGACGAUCUACCUCUGAUUGCAUCACUAGGACUAACUACAAGCUGGCUGGGGAUACUCCCUUGUGUGUUCUGUCCUAUCCAGAUGGCCUGCUAGAUUGAAUUAUACUCACCAACACAUUGGAAUUCUCGGGUGCCAA	0.948

Further values, each from its own experiment
Parent: viral docking peptide; CKVKRKLFGSENI; partner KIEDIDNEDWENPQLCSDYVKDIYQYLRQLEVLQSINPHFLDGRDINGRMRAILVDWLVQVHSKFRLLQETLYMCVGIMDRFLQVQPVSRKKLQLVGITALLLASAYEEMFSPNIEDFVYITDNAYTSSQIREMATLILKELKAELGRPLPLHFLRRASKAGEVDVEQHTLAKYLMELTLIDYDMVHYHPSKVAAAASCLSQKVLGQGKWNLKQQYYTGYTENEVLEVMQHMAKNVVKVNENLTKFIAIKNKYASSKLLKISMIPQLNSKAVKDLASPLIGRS
Change	target	test	test system	setting	scale	quantity	result
V3A	CCNB2, cyclin fold, Cln2 fusion (human)	yeast growth competition, sequencing	yeast	weak parent motif	baseline: not given, higher = stronger binding	normalised enrichment score	0.35

A few entries again (study 1):
Sequence	fluorescence intensity [a.u.]
GAAGGTTTTAAAAGTCACGTGCTTAAGTCCATTTAGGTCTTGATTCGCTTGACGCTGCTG	23200
CTATCGTGGTCCTCTCATGTCACGTCAAAATTTTTCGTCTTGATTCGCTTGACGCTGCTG	702
CTACTGGAGGTTAATCACCTGTTGTCTTACTATTTCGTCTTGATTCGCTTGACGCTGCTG	768
